Measurements of several laboratories.
Every numbered part comes from another study and shows a few of its results, in no order.

Series 1 — technique: protein-binding microarray; molecule type: double-stranded DNA, one strand shown; medium: in vitro; concentration: not given; direction: higher = stronger binding; quantity: E-score
Target: Hepatocyte nuclear factor 3-beta, forkhead domain (FOXA2, Homo sapiens, UniProt Q9Y261, residues 142-269)
Notes: k-mer, scored over probes, only values ≥0.25
Residues (chain): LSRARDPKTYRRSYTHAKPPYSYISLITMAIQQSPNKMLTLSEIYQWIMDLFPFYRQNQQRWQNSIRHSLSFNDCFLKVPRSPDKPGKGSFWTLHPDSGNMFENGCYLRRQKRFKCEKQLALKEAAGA
ATTATATC: 0.289
CTGCATAC: 0.273
AATGTTGT: 0.259
TATATAGA: 0.37
AGTACATA: 0.297
AAGTAAAT: 0.342
ATAGCAAA: 0.268
ACTACTAT: 0.323
TAATAACA: 0.266
CATAAGAA: 0.268
AATACTGA: 0.258
ATATTACA: 0.318
GTTTACAA: 0.252
GTTAATTA: 0.301
CTGTATTC: 0.324
TACCAACA: 0.312
ATATATCA: 0.369
CCATATAA: 0.25

Series 2 — technique: protein binding microarray; molecule type: double-stranded DNA, one strand shown; medium: in vitro; concentration: not given; baseline: not given; direction: higher = stronger binding; quantity: E-score
Target: Histone acetyltransferase KAT6A, winged helix 2, GST fusion (KAT6A, Homo sapiens, UniProt Q92794, residues 85-181)
Notes: 8-mer, flanks averaged, mean of 2 arrays, mostly near background
Target sequence (chain): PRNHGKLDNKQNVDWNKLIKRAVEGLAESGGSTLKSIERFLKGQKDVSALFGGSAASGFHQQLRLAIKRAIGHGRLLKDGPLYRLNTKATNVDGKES
CCTGCAAC: 0.0451
TTCGCGAA: 0.245
ACGGCTCC: 0.089
ACCTCACC: -0.171
CCCTTGCG: -0.0836
AGTATACA: -0.0106
AATACAAC: -0.0642
CTTGTAGA: -0.19
GTGGCCAA: 0.0776
GAACGTAA: -0.142
TGGCAACA: 0.0118
ACCATACC: -0.124
AATCCGAA: -0.0422
ATAGGATC: -0.0428
ACATTGCG: -0.102
GGTACATA: -0.297
GAACATTC: -0.127
CTAATCTA: 0.0622
CATATTCA: 0.117
CGATATGA: -0.0954
GCGATCCC: 0.00394
ATAAGGCG: 0.0292
AGCGACTG: 0.0532
GTGACGAA: 0.0589
ACCCGGTC: 0.0302

Series 3 — technique: RNA Bind-n-Seq; molecule type: RNA; medium: in vitro; concentration: 365 nM; baseline: no-protein control; direction: higher = stronger binding; quantity: RBNS enrichment (R)
Target: RNA binding protein fox-1 homolog 2, RRM domain, GST-SBP tag (RBFOX2, Homo sapiens, UniProt O43251-10, residues 100-194)
Notes: natural RNA segment, single round, ends assumed
Target sequence (chain): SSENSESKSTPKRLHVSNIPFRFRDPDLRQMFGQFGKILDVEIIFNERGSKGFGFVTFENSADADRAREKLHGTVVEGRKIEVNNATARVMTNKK
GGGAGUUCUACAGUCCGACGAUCUCAAAUUCUAAUGGAAUUGAGCCGGUUUCUUAUCCUAAAUGUUUCCUCCCUUUUUACAAUCUCUGUCCAGCACCUCUUGGUUAAAUAAUGUAUGCUGUGAGACAUGAAAUUGGAAUUCUCGGGUGCCAA: 0.751
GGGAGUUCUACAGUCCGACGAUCUUUUAAUCGGUGGCAUUAUGAGCAUCAGAACAGAUACUGAGAUAAAGGAAGAACCAAAAGCCAAGUUAAAGCUGAGAGCACAAGUGCUGCAUGGAAAGGCAAUAUCUCUGUGGAAUUCUCGGGUGCCAA: 5.17
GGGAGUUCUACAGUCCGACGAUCGUAGGGAGGAAAACCUGUCAUUUUUGUUGUUUUGCCAGAAUGAAUGACGAUAACUCCUCCUGUUAACAAAACUAUACUUAAAGCAGUAGCAGUACUCUGCCAAUUUUAGAUGGAAUUCUCGGGUGCCAA: 0.697
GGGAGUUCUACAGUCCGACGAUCCCCUGAAAUAUUUUCUACUUUAAAUUGUGGAUGAAGACCCUAUCUCCCACAAAUAAGUUCCCAUUUCCUUGUCUAAAGAUCUUUUUUUAAGUGUUCUGUGGCUGAUUUACUGGAAUUCUCGGGUGCCAA: 0.443
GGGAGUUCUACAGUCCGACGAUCGAUUUUUAUUUAAGAAUAAAAGAGUACUUUGAUCAUGAGACAUAGGUAUCUUGUCCCUCUCACUAAAAAGGAGUGUUGUGUGUGGCGGCCACGUGCUUCUAUGUGGUGUUUGGAAUUCUCGGGUGCCAA: 0.491
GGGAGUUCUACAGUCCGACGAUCUACAAUUGGCUCUGAGAAAAAGGGAGACAUUUUAAAUUCUUUAACUUCUUAUUUCUCGUCCUGUCUCUUUGCAAAGUAUGGGCUUUUUUGUUUUUGUUUUUUAAGGGAAAUGGAAUUCUCGGGUGCCAA: 0.588
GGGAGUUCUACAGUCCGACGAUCCUGGCUUGCUGUCUGCAAGGCCCAUGUGGGCCUUUUGGCUGAAGCAUUUGUAGAAGCAGCCAUCUUCCCCCUGGUGGGGCUUUGGGGUCUAUGUUAGCCAUUUGUAUCUAUGGAAUUCUCGGGUGCCAA: 0.802
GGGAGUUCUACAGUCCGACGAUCUUUGCAAGCAAUGGGAUGAGCAAGAAAAAAAGGACGCAUGGAGGAGAAAAAUUUGAACGAGGCUAGUGCAAUGUUUUGCUGAUAGAUUACAUUGUUAGGGAGCUGGUGAUUGGAAUUCUCGGGUGCCAA: 6.11
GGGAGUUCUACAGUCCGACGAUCAAAAAAUGGGUCUCCUUCUGGGCUCCAGGAUUGUCUCCCCACUCCAGCAUCCCCAAACUGGUACUCCCUGACCCAGGGCCCCAAACCUGGGCUCUUACAGAGCCUCCAUGUGGAAUUCUCGGGUGCCAA: 0.823
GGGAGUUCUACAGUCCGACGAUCCAAAAUAGACAAGGUCACUUAUCCUGCCAUAUUGUCUCUUUGUAUAUAAAGAUGUUCAUAUUUUAGGAAUAUUUGCAUAACUCAAGUGGAUAAAACAUUAAAAUGAAAACUGGAAUUCUCGGGUGCCAA: 0.285
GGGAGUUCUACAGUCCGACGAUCUUGCCAGAACAUGUCUUGGUACCUUGUGAAAGCAGGCUGCCCUUGUUCUUGAGAUAGACUUUAAAAUGAACCAGCUCUGAAAAGUACUUCUGCUGCUCUGGUCUAUCCCUUGGAAUUCUCGGGUGCCAA: 0.226
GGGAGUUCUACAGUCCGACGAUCCUGGCCUCUGCCAUAAUUUGUUGUUCAACUGCUCCCUCCUUCCUGAGGGGCCUCAGGGCUUGUGGGGGGUAGGCUGAGACCCCACCACCAAAGGUUAAGUGAGGUCCCCUUGGAAUUCUCGGGUGCCAA: 0.338

Series 4 — technique: RNA Bind-n-Seq; molecule type: RNA; medium: in vitro; concentration: not given; notes: RNA with constant flanks, ends assumed; baseline: input RNA pool; direction: higher = stronger binding; quantity: bound/input enrichment
Target: RING finger protein unkempt homolog, zinc fingers 1-6, GST-SBP tag (UNK, Homo sapiens, UniProt Q9C0B0, residues 30-357)
Construct (chain): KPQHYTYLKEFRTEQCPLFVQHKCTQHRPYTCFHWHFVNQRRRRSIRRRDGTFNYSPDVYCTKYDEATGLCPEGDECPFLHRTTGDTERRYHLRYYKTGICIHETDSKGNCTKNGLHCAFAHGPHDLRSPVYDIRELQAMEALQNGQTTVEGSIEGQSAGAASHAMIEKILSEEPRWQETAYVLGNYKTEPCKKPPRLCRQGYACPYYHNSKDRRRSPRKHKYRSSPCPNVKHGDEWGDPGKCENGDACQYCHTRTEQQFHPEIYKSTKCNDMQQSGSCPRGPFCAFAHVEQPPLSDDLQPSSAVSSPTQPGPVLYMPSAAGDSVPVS
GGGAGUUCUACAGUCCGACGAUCGGCCCGGCUGCGGCUGGAGGCCACGCGCCUCAGAGUUUGCUAUUGCGAAUACUGACCCCCCGCUUUGAAGGUAUUAGCGGAUUGUUACUGAAACAGCAUAUAGUUCCAAAUGCAGUCAGACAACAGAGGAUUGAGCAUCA: 0.156 ratio
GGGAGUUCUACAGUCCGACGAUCAUUUUUUUAUUUGUUUUCAGGGGGGUUUUUUGGGGGAAAAUUUUUUUAAAUGGAAGCUUCCCGCAAGCCCCCCACCCCAAUCAACCUCUAUGCUUUCUUCUUAAAAAAAAAAAAAAAGGACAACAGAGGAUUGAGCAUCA: 0.962 ratio
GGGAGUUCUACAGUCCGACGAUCACUCUGUGGGCCACAUCCCCCAGGGUUCUGACACUUCUGCAGUGUGACCAGUGGUGAUGCCCGGUUAUAAUUUCAAACUGUGAAAAAUAAUGGUCUCGUCCUUUACUCAGUGUGGGGUUACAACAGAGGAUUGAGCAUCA: 0.122 ratio
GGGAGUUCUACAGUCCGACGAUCGUGGUUUGUCUUAUCUCCUGCCUUGAUCUUCCAUGUCAUUUCCCAGUGGGCAACUAUCAUCCGUUUAUACCUCGAUUUUAUUUGCCCUGUGUAAUUUUUAACUAAAAAUGUUACAUAACCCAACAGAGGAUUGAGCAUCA: 0.155 ratio
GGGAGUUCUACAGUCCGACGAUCCGUGCACUGGGUUAAAAACGACAACGAGCACCAACCAUGAAAGAUCCAAGUCGCAGCAGUACCCGCCCAAGCAUCAUCAAUGACGAUGUGAUUAUUAACGGUCAUUCUCAUGAAGAGGAUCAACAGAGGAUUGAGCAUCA: 0.0994 ratio
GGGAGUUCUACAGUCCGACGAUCAAGCCCUACCAACAGCUACAGAAUAUCAUAUGCUAUGACUGUGUUGCCUUUUUUUUCCGCCCGUUUUCAUUGUGUUCUGUUUUCACUCUUGAUAAGUAAAAAACUCUGAAAUUGCCACUGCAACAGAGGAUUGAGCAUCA: 0.368 ratio
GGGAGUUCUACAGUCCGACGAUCUGACUUUGCGUAGGCUUGCGGGUGUCCAGGCCGCCUAGGCUGGAGAGAAAGCCAGCCGAAACCGAUAUGAUUGUAGGAAAAGACCGGGAAGGUUUCUUUACCAACGGUUUGACUCUUGGACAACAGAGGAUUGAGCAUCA: 0.165 ratio
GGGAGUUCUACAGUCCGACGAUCGCACCAAAGUAUCAGAUAGGAGAGAGAAUCCGAGUCAUCCUGGACAUGGAGGAUAAGACUUCCGCUUUUGAGCGUGGGUAUGAGUUCCUGGGGGUUGCCUUUCGAGGACUUCCAAAAGCCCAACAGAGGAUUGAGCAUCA: 0.125 ratio
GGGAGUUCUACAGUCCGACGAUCGUUGUGUUUUGUUUUUGUUUCCUUUUGUUUAUGUUUUGGCCUUUCCUCUUUGUCUUUCCAUGCCGACCAGAUAUUUGAAAGGGCAGACGAUGGCUAGAGGUGUAAUGUGCAGCUUGUUUACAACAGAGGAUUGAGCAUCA: 0.666 ratio
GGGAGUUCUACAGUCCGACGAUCCGCCUGGUGGACAGCAAAGGCUUUGAUGAAUACAUGAAGGAGCUAGGAGUGGGAACCGCUUUGCGAAAAAUGGGCGCAAUGGCCAAGCCAGAUUGUAUCAUCACUUGUGAUGGUAAAAACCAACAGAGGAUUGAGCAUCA: 0.13 ratio
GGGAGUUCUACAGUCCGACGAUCGGUUUUCCUAAAGUCAACAUUCUCCUCAGGGAUGCCAUUGAAAAGUUAUUUCCUGAUGCCAUCCGAAUGCGAGUUGAAGACAUUCAGCAGAAUAAUGAUGUAGUCCAAAGUCUUGCAGCCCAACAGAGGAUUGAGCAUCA: 0.199 ratio
